# Experimental data from different studies.
# Compare with care: the assays were run in different laboratories.
# UniProt Q13188, sequence (whole entry, looked up): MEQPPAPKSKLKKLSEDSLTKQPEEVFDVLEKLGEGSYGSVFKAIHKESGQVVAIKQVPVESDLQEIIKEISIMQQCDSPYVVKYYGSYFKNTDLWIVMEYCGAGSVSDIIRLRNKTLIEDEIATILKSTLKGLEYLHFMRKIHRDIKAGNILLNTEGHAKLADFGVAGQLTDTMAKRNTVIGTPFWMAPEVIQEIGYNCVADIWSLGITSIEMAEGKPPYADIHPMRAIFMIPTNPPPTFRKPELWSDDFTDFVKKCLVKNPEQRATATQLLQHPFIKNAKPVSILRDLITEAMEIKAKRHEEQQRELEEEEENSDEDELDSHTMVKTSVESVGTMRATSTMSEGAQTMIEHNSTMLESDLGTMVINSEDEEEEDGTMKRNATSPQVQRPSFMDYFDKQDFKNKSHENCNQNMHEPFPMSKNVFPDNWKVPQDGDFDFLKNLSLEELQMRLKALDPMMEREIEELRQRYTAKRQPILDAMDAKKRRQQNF
Compound,target or system,assay,system,conditions,endpoint,result
CC(C)C[C@@H]1NC(=O)[C@H](CCCNC(=N)N)NC(=O)[C@H]2CCCN2C(=O)[C@@H](N)CSSC[C@@H](C(=O)O)NC(=O)[C@@H]2CCCN2C(=O)[C@H](Cc2ccccc2)NC(=O)[C@H](CC(C)C)NC(=O)[C@H]([C@@H](C)O)NC(=O)[C@H](C(C)C)NC1=O,,,aqueous buffer,"18 h, pH 7.4",solubility,871 µM
COc1cc(C(=O)c2nc(-c3cccc4[nH]ccc34)c[nH]2)cc(OC)c1OC,,,PBS,pH 7.4,kinetic solubility,4.61 µM
CC1(C)NC(=O)N(c2cc(Cl)c(F)c(C(F)(F)F)c2)C1=O,,nephelometry,aqueous buffer,,kinetic solubility,≤ 50 µg/mL
CC(C)C[C@H]1C(=O)N[C@@H](C(C)C)C(=O)N[C@@H](Cc2ccccc2)C(=O)N[C@H](CC(=O)O)C(=O)N2CCC[C@@H]2C(=O)N[C@H](CCC(=O)O)C(=O)N[C@H](C(=O)O)CSSC[C@@H](N)C(=O)N[C@@H](CCC(=O)O)C(=O)N2CCC[C@H]2C(=O)N1C,,,aqueous buffer,"18 h, pH 7.4",thermodynamic solubility,613 µM
Nc1nc(N)c(OCCCOc2ccccc2CCC(=O)O)c(-c2ccccc2)n1,,,PBS,"24 h, pH 7.4",solubility,51 µM
COc1ccc([C@@]23Oc4cc(OC)cc(OC)c4[C@@]24N=C(C2CC2)N[C@@]4(O)[C@H](C(=O)N(C)OC)[C@H]3c2ccccc2)cc1,,,aqueous buffer,"6 h, pH 7.4",kinetic solubility,45 µg/mL
CC[C@H](C)[C@H]1C(=O)N[C@@H](CO)C(=O)N[C@@H](CC(C)C)C(=O)NCC(=O)N2CCC[C@H]2C(=O)N[C@@H](CC(C)C)C(=O)N[C@@H]([C@@H](C)O)C(=O)N[C@@H](CC(C)C)C(=O)N[C@@H](CC(=O)O)C(=O)N[C@H](Cc2ccc(O)cc2)C(=O)N2CCC[C@@H]2C(=O)N[C@H](Cc2ccc(O)cc2)C(=O)N1C,,,aqueous buffer,"18 h, pH 7.4",thermodynamic solubility,412 µM
C#Cc1ccc2c(c1)C(c1ccccn1)=NCc1c(-c3cnco3)ncn1-2,,,water,"20 min, 37 °C",kinetic solubility,240 µg/mL
[2H]c1c([2H])c([C@]2([2H])CCCN2C(=O)C(C)(C)Oc2ccc3cn[nH]c3c2)c([2H])c([2H])c1C([2H])([2H])[2H],"Serine/threonine-protein kinase 3 (STK3, Homo sapiens, UniProt Q13188)","binding, competition with immobilised ligand",,1 µM,remaining binding,92%
C[C@]12CC[C@H]3[C@@H](CC=C4CC(O)CC[C@@]43CO)[C@@H]1CCC2O (stereo partly shown),,,water,,solubility,301 µM
CC(C)C[C@@H]1C(=O)N[C@@H](Cc2ccccc2)C(=O)N2CCC[C@H]2C(=O)N[C@@H]([C@@H](C)O)C(=O)N[C@@H](C(C)C)C(=O)N[C@H]([C@H](C)O)C(=O)N[C@@H](Cc2ccccc2)C(=O)N[C@@H](CCC(N)=O)C(=O)N[C@H](C(=O)O)CSSC[C@H](N)C(=O)N1C,,,aqueous buffer,"18 h, pH 7.4",solubility,457 µM
COc1ccc([C@@]23Oc4cc(OC)cc(OC)c4[C@@]24NC(C)=N[C@@]4(O)[C@H](C(=O)N(C)OC)[C@H]3c2ccccc2)cc1,,,aqueous buffer,pH 7.4,kinetic solubility,> 83 µg/mL
CC(C)N(CCc1c[nH]c2cccc(O)c12)C(C)C,,,aqueous buffer,pH 5,solubility,1000 to 2000 µg/mL

# A few entries again:
Compound,target or system,assay,system,conditions,endpoint,result
CC[C@H](C)[C@H]1C(=O)N[C@@H](CO)C(=O)N[C@@H](CC(C)C)C(=O)NCC(=O)N2CCC[C@H]2C(=O)N[C@@H](CC(C)C)C(=O)N[C@@H]([C@@H](C)O)C(=O)N[C@@H](CC(C)C)C(=O)N[C@@H](CC(=O)O)C(=O)N[C@H](Cc2ccc(O)cc2)C(=O)N2CCC[C@@H]2C(=O)N[C@H](Cc2ccc(O)cc2)C(=O)N1C,,,aqueous buffer,"18 h, pH 7.4",thermodynamic solubility,412 µM
C#Cc1ccc2c(c1)C(c1ccccn1)=NCc1c(-c3cnco3)ncn1-2,,,water,"20 min, 37 °C",kinetic solubility,240 µg/mL
